# Measured values pooled from the literature.
# Compare with care: the assays were run in different laboratories.
# MAOA: Amine oxidase [flavin-containing] A (MAOA, Homo sapiens, UniProt P21397)
# Sequence of UniProt P21397 (whole entry, looked up): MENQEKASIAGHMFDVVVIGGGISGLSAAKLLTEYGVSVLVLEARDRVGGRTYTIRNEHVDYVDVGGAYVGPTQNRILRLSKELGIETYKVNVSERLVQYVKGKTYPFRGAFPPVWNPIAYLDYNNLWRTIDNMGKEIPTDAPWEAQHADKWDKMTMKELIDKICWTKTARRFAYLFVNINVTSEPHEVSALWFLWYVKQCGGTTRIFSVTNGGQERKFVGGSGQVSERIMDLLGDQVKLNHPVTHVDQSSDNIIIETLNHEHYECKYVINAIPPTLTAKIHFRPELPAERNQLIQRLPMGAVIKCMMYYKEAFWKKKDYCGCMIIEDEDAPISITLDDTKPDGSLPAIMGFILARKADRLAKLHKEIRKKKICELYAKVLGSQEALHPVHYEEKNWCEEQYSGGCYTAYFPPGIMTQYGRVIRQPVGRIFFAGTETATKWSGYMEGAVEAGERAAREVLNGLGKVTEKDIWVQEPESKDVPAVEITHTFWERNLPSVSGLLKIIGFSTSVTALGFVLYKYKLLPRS
# APP: Amyloid-beta precursor protein (APP, Homo sapiens, UniProt P05067)
# Sequence of UniProt P05067 (whole entry, looked up): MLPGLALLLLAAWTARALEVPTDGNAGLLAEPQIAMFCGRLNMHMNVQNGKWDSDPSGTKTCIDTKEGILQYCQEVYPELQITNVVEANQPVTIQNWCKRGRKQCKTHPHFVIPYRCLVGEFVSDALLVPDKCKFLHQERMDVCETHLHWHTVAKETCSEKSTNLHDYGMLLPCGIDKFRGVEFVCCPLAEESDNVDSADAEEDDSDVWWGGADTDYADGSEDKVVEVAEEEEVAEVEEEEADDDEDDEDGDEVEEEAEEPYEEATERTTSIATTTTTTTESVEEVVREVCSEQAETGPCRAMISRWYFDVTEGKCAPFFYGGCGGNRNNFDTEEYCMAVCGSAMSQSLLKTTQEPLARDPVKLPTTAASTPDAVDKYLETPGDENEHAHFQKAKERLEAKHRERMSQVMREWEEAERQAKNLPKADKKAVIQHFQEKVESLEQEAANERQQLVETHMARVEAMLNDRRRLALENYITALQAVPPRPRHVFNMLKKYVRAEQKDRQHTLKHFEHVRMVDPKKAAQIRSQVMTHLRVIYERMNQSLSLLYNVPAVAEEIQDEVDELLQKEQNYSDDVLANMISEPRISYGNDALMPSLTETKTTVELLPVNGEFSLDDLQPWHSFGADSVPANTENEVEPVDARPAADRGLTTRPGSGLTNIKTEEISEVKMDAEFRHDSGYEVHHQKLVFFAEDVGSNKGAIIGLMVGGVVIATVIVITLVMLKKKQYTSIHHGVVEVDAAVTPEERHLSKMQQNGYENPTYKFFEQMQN
# lasR: Transcriptional activator protein LasR (lasR, Pseudomonas aeruginosa, UniProt P25084)
# Sequence of UniProt P25084 (whole entry, looked up): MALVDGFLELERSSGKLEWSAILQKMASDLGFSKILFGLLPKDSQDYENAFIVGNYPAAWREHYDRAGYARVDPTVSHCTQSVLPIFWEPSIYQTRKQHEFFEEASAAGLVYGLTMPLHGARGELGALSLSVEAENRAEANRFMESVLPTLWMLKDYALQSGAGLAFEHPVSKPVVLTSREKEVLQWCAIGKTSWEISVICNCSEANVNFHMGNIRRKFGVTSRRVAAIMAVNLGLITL
# Sequence of UniProt Q007T0 (whole entry, looked up): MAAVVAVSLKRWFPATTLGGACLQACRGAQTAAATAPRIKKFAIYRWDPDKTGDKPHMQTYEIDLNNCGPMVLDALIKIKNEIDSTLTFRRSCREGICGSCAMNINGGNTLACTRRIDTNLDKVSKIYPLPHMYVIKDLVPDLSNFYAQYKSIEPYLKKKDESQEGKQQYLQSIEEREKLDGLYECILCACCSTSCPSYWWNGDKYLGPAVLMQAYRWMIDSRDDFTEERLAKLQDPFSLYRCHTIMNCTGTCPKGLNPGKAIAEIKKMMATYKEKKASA
# Sequence of UniProt P52699 (whole entry, looked up): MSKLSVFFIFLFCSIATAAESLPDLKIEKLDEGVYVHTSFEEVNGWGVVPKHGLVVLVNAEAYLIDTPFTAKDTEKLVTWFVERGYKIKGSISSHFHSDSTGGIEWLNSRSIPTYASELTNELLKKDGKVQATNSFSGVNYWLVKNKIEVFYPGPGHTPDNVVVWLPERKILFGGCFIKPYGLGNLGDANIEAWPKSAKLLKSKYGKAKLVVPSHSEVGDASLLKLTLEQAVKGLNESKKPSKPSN
# Sequence of UniProt P23443 (whole entry, looked up): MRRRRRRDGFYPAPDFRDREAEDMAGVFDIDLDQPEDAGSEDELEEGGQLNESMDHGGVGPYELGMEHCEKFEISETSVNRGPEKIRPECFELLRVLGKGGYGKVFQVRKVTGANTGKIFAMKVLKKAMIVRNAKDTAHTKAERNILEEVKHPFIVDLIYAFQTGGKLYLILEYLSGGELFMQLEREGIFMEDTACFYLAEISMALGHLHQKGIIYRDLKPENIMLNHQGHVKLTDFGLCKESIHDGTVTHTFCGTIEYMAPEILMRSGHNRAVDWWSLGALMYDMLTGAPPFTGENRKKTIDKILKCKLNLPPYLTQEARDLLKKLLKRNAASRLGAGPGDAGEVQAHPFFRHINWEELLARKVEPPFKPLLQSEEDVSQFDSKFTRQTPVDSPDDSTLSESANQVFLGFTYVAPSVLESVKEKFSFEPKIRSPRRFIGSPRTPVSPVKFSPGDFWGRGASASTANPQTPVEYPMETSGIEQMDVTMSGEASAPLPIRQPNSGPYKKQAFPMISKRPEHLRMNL
# Sequence of UniProt A5GZW8 (whole entry, looked up): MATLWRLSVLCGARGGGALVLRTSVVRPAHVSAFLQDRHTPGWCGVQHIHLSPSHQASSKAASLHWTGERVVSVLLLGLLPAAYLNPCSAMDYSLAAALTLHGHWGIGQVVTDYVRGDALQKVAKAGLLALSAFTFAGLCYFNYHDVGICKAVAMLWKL
# Sequence of UniProt D0VWV4 (whole entry, looked up): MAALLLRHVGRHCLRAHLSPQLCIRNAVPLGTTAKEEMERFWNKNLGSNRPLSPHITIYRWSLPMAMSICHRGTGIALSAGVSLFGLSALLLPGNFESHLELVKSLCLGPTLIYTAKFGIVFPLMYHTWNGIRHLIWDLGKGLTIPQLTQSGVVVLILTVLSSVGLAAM
# Sequence of UniProt Q0QF01 (whole entry, looked up): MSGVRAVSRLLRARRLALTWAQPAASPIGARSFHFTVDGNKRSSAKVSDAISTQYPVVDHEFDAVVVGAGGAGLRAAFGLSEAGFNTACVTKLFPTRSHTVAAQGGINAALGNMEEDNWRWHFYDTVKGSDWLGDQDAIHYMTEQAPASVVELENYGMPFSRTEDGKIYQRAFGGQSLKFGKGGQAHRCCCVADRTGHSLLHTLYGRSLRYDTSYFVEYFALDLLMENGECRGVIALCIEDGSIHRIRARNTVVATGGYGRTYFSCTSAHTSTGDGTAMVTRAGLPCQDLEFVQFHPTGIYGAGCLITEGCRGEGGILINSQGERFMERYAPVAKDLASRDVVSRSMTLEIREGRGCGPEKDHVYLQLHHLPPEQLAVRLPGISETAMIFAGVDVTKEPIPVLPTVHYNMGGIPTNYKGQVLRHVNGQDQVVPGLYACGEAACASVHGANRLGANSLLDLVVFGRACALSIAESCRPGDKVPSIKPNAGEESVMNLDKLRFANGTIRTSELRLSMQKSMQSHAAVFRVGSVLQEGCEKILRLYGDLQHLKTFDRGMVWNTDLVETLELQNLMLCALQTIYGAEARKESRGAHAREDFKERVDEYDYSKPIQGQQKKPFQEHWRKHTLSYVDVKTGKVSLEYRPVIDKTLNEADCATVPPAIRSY
Structure (SMILES),target,test,setting,inhibition
CCS(=O)(=O)N1CCN(CC(=O)Nc2ccc(/C=C/C(=O)c3ccc(OC)c(OC)c3)cc2)CC1,MAOA,"enzyme activity, inhibitor, fluorescence",1 mM,45%
CC[C@H](C)[C@@H]1NC(=O)CNC(=O)[C@H](CCSC)NC(=O)[C@H](C(C)C)NC(=O)[C@H]([C@@H](C)O)NC(=O)[C@@H]2CSSC[C@@H]3NC(=O)[C@H](Cc4c[nH]cn4)NC(=O)[C@@H](NC(=O)[C@@H](NC(=O)[C@H](Cc4ccccc4)NC(=O)[C@H](C)N)[C@@H](C)O)CSSC[C@@H](C(=O)N[C@@H](CC(C)C)C(=O)O)NC(=O)[C@H](CSSC[C@H](NC(=O)[C@H](CO)NC(=O)[C@H](CCCNC(=N)N)NC(=O)[C@H](CCCNC(=N)N)NC3=O)C(=O)N[C@@H](Cc3ccc(O)cc3)C(=O)N[C@@H](CO)C(=O)N[C@@H]([C@@H](C)O)C(=O)N[C@@H](CCC(=O)O)C(=O)N[C@@H](Cc3ccc(O)cc3)C(=O)N[C@@H](CO)C(=O)N[C@@H](Cc3ccc(O)cc3)C(=O)NCC(=O)N[C@@H]([C@@H](C)O)C(=O)N2)NC(=O)[C@H](Cc2ccccc2)NC(=O)[C@H](CCCNC(=N)N)NC(=O)[C@H](Cc2c[nH]cn2)NC(=O)[C@H](CC(N)=O)NC1=O,"Amyloid-beta precursor protein, Aβ42 (APP, Homo sapiens, UniProt P05067)","amyloid fibril formation, inhibitor, ThT fluorescence","concentration not given, 24 to 30 h, 37 °C, compound ratio 1:1, with: amyloid-beta 20 µM",82%
CC1CN1c1cc(O)c2nc(N)sc2c1 (stereo not shown),"HDACs, sirtuins and HATs",,"50 µM, 1 h",inactive
Cc1ccc(-c2nc3ccc(/N=N/c4ccc(Cl)cc4)cc3c(-c3ccccc3)c2I)cc1,APP,"amyloid aggregation, inhibitor, fluorescence",25 µM,61.7%
O=C(N[C@H]1CCOC1=O)c1ccc(-n2cc(-c3cccc(C(=O)N[C@H]4CCOC4=O)c3)nn2)cc1,lasR,"reporter gene, antagonist","100 µM, with: OdDHL 10 nM",22%
CC(C)C(=O)Nc1ccccc1-c1nn[nH]n1,"Metallo-beta-lactamase type 2 (Serratia marcescens, UniProt P52699)","enzyme activity, inhibitor",concentration not given,no inhibition
CCCCc1nc2ccc(/N=N/c3ccc(Br)cc3)cc2c(-c2ccccc2)c1I,APP,"amyloid aggregation, inhibitor, fluorescence",25 µM,62.8%
CC(=O)NC(Cc1ccc(Br)c(Cl)c1)C(=O)N[C@@H](C)C(=O)N1CCC[C@H]1C(=O)N1CCC[C@H]1C(=O)N[C@@H](CCC(=O)O)C(=O)N[C@@H](Cc1c[nH]cn1)C(=O)N[C@@H](CO)C(=O)N[C@H](C(=O)N[C@@H](C)C(N)=O)[C@@H](C)OP(=O)(O)O (stereo partly shown),"Ribosomal protein S6 kinase beta-1 (RPS6KB1, Homo sapiens, UniProt P23443)","enzyme activity, inhibitor",10 µM,0.29%
CCCCc1cn(-c2ccc(C(=O)N[C@H]3CCOC3=O)cc2)nn1,lasR,"reporter gene, antagonist","10 µM, with: OdDHL 10 nM",13%
O=C(Nc1ccccc1Nc1ccccc1)c1cccnc1Cl,"Succinate dehydrogenase complex (Sus scrofa, UniProt A5GZW8+D0VWV4+Q007T0+Q0QF01)","enzyme activity, double-antibody sandwich ELISA",0.5 µM,21.8%
NC1CC1c1ccc(NC(=O)C(Cc2ccccc2)NC(=O)OCc2ccc(Br)cc2)cc1 (stereo not shown),MAOA,"enzyme activity, inhibitor, HRP-coupled","100 µM, with: kynuramine",71%
O=C(Cn1cc(C2CCCC2)nn1)N[C@H]1CCOC1=O,lasR,"reporter gene, antagonist","100 µM, with: OdDHL 10 nM",70%
NCC(CCC(N)C(=O)O)CC1OC(n2cnc3c(N)ncnc32)C(O)C1O (stereo not shown),"DNA (cytosine-5)-methyltransferase 3B (DNMT3B, Homo sapiens, UniProt Q9UBC3)","enzyme activity, inhibitor",20 µM,> 50%

# A few entries again:
Structure (SMILES),target,test,setting,inhibition
CC(C)C(=O)Nc1ccccc1-c1nn[nH]n1,"Metallo-beta-lactamase type 2 (Serratia marcescens, UniProt P52699)","enzyme activity, inhibitor",concentration not given,no inhibition
CCCCc1nc2ccc(/N=N/c3ccc(Br)cc3)cc2c(-c2ccccc2)c1I,APP,"amyloid aggregation, inhibitor, fluorescence",25 µM,62.8%
